Assay results collected from several papers.
Numbered parts are unrelated; each lists some results of a single study. Values joined by “and” are separate records of one study, mostly repeats; a detail may differ.
Sequence of UniProt P11362 (whole entry, looked up): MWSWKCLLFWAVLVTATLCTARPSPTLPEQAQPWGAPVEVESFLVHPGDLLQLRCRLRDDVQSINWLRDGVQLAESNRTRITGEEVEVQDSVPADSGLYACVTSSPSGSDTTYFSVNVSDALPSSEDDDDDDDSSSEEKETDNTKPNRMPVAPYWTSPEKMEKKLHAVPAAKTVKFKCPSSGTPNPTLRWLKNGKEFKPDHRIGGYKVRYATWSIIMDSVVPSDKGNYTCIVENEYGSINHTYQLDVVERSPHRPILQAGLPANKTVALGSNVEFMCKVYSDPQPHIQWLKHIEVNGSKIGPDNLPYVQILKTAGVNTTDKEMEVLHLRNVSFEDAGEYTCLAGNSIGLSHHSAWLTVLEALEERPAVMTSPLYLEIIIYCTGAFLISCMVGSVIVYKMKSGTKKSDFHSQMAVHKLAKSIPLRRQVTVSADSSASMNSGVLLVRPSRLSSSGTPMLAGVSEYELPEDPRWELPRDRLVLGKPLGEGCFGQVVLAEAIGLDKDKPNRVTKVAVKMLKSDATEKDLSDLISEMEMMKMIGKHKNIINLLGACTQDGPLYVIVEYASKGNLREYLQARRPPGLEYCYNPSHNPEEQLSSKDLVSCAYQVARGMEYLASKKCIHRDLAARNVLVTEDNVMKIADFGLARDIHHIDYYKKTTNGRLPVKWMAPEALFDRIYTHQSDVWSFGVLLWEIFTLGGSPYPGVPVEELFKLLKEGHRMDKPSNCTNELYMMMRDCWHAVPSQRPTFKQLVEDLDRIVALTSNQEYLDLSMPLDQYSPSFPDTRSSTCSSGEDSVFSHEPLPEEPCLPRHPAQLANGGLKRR
Sequence of UniProt P30291 (whole entry, looked up): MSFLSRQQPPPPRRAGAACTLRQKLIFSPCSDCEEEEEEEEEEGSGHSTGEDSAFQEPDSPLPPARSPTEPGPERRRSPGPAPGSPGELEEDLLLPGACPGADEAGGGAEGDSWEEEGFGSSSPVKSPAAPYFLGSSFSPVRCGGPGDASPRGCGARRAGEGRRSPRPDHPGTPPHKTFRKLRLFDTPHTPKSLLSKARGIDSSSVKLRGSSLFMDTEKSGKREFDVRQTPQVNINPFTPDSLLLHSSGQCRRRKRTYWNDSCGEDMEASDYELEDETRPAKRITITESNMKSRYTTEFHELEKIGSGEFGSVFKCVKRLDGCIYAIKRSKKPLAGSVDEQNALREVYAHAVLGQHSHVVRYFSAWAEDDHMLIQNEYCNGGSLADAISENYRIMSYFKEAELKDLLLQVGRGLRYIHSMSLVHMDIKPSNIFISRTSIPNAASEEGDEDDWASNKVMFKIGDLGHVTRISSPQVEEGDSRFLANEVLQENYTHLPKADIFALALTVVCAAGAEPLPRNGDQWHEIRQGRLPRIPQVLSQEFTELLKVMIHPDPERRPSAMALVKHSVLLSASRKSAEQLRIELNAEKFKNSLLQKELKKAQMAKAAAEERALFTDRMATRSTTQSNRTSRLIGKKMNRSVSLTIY
Sequence of UniProt Q9HC98 (whole entry, looked up): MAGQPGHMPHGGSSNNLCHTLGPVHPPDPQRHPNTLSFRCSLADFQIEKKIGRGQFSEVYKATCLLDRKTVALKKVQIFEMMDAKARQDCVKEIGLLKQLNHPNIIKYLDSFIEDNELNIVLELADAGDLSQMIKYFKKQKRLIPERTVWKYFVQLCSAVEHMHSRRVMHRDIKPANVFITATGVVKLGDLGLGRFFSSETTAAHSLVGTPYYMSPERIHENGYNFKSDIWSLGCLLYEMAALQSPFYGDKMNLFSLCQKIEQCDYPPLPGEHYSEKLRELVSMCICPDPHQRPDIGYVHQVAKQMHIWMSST
Sequence of UniProt Q04912 (whole entry, looked up): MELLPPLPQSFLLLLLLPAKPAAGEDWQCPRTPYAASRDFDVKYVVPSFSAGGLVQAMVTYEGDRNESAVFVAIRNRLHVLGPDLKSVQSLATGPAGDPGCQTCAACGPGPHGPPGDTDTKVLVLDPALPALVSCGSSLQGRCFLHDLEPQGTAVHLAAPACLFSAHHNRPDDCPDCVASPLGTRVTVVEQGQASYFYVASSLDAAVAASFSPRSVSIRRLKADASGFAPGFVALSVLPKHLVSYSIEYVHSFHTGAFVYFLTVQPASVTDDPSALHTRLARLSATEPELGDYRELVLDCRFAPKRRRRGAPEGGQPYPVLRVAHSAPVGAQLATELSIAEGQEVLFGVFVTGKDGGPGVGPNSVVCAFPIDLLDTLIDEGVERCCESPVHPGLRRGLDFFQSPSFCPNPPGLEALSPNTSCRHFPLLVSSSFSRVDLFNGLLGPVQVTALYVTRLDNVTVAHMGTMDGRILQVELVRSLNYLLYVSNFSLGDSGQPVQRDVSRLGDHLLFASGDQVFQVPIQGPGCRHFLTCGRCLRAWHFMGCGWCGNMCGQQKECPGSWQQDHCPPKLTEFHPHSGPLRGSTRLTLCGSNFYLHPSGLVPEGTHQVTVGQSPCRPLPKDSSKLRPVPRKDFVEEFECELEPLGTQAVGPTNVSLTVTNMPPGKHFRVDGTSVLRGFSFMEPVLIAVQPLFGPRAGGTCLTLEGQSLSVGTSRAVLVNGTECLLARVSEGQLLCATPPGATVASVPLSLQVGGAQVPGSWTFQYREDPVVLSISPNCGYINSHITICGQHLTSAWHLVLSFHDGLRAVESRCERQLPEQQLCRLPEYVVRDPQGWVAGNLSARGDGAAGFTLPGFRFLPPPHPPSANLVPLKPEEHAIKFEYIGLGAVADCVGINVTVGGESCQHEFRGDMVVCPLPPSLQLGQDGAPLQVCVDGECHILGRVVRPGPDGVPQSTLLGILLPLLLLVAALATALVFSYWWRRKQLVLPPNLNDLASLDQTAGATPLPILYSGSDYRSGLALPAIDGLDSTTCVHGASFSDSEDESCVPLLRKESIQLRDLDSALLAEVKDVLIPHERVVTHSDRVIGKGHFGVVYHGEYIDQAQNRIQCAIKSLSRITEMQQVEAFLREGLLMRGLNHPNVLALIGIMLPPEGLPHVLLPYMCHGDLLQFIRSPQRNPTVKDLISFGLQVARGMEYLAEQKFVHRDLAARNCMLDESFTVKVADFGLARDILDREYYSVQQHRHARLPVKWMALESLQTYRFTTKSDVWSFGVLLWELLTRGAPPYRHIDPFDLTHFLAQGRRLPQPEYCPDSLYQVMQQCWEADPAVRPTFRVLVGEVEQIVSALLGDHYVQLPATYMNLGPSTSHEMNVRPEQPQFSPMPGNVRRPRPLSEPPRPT
Sequence of UniProt Q9Y6M4 (whole entry, looked up): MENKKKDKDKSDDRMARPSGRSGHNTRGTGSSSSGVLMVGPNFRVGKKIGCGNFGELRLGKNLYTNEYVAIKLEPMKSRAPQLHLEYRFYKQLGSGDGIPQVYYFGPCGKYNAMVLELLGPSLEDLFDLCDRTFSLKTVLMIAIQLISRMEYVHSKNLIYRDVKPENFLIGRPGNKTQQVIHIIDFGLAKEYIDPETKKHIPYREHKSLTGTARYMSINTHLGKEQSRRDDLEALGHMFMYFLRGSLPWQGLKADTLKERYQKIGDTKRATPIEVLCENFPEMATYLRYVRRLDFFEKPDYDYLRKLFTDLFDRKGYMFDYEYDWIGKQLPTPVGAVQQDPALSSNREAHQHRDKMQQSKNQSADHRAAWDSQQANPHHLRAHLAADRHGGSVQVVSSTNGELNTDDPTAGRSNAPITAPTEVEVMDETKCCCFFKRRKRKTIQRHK
Sequence of UniProt P52333 (whole entry, looked up): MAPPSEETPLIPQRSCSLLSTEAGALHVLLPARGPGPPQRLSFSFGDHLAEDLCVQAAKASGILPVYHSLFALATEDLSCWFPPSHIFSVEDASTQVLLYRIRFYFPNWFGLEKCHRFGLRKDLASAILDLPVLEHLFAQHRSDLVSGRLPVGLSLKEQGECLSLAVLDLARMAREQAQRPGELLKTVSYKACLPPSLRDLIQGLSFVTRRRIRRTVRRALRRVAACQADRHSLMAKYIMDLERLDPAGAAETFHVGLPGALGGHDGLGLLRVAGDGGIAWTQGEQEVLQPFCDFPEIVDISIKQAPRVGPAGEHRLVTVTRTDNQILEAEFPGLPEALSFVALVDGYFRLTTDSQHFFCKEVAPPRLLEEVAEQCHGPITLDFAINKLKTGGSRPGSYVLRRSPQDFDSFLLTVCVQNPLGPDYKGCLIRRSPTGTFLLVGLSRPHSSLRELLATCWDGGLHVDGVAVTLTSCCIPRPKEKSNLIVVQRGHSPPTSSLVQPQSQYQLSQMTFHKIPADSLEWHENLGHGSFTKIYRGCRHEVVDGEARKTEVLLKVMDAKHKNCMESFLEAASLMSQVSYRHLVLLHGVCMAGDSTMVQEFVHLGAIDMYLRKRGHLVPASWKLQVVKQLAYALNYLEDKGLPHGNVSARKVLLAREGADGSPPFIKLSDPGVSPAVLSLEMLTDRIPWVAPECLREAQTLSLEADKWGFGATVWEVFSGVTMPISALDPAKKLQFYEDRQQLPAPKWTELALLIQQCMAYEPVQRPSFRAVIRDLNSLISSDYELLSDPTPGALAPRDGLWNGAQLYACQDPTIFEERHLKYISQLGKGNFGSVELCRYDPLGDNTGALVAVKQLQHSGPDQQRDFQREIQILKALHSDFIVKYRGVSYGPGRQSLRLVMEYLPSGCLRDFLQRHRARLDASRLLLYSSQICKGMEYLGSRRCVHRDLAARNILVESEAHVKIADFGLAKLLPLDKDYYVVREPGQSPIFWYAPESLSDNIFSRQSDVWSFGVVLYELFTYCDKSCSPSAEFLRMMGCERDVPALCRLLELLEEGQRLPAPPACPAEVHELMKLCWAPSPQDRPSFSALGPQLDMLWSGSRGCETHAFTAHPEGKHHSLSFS
Sequence of UniProt P33032 (whole entry, looked up): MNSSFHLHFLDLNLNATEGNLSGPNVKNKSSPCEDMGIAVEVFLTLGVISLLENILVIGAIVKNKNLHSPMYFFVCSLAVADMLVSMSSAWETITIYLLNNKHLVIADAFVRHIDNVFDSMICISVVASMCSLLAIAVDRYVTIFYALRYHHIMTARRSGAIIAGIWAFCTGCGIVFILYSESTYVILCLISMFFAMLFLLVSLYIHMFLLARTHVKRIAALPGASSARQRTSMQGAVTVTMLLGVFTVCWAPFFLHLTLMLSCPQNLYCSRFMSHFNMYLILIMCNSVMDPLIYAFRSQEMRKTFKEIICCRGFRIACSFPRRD

Sample 1
Cell line: A-375
Concentration: 100 µM
Time: 18 h
Structure (SMILES)	viability
CCCCc1nc(Cl)c(CO)n1Cc1ccc(-c2ccccc2-c2nn[nH]n2)cc1	94.2% and 101%
O=C1NCC2(CCN(CCc3ccccc3)CC2)O1	89%
CN1CCN(CCCN2c3ccccc3Sc3ccc(C(F)(F)F)cc32)CC1	7.87%
NCCC(O)(P(=O)(O)O)P(=O)(O)O	96.5%

Sample 2
SMILES: N=C(N)NC(=O)c1cnn(-c2cccc3ncccc23)c1C1CC1
Effect on: β-arrestin recruitment
Action: agonist
Technique: PRESTO-Tango
Concentration: 10 µM
Relative to: untreated
target	fold over basal
Mas-related G-protein coupled receptor member E (MRGPRE, Homo sapiens, UniProt Q86SM8)	0.98
MC5R (Homo sapiens, UniProt P33032)	0.75
MTNR1A (Homo sapiens, UniProt P48039)	0.94
P2Y purinoceptor 1 (P2RY1, Homo sapiens, UniProt P47900)	0.67
CMKLR1 (Homo sapiens, UniProt Q99788)	0.47
CCR6 (Homo sapiens, UniProt P51684)	1.05

Sample 3
SMILES: COc1cccc(CNC(=O)c2nc3scc(COCc4ccc(C(=O)O)cc4)c3c(=O)[nH]2)c1
Effect on: cell-free assay
Technique: competition with immobilised ligand
Concentration: 1 µM
target	remaining binding
SRPK3 (Homo sapiens, UniProt Q9UPE1)	70.1%
PNCK (Homo sapiens, UniProt Q6P2M8)	70.7%
BUB1 (Homo sapiens, UniProt O43683)	70.2%
Ribosomal protein S6 kinase alpha-5, C-terminal kinase domain (RPS6KA5, Homo sapiens, UniProt O75582)	93.1%
PAK5 (Homo sapiens, UniProt Q9P286)	87.4%
STK17B (Homo sapiens, UniProt O94768)	94.4%

Sample 4
Compound: O=C1NC(=O)/C(=C/c2ccc3c(c2)OC(F)(F)O3)S1
Effect on: enzyme activity
Action: inhibitor
Concentration: 0.5 µM
Relative to: control
target	remaining activity [%]
TAOK2 (Homo sapiens, UniProt Q9UL54)	96.9
TEK (Homo sapiens, UniProt Q02763)	91.9
FGFR1 (Homo sapiens, UniProt P11362)	94.3
MAP2K2 (Homo sapiens, UniProt P36507)	110
ABL2 (Homo sapiens, UniProt P42684)	96
WEE1 (Homo sapiens, UniProt P30291)	88.8
LCK (Homo sapiens, UniProt P06239)	98.3
CSNK1G3 (Homo sapiens, UniProt Q9Y6M4)	91.4
FRK (Homo sapiens, UniProt P42685)	93.4
JAK3 (Homo sapiens, UniProt P52333)	98.6
EPHA3 (Homo sapiens, UniProt P29320)	97.6
TBK1 (Homo sapiens, UniProt Q9UHD2)	93.3
NEK6 (Homo sapiens, UniProt Q9HC98)	113
NEK1 (Homo sapiens, UniProt Q96PY6)	79.6
MST1R (Homo sapiens, UniProt Q04912)	100

For quick reference, copied from above (sample 4):
target	remaining activity [%]
TBK1 (Homo sapiens, UniProt Q9UHD2)	93.3
NEK6 (Homo sapiens, UniProt Q9HC98)	113
WEE1 (Homo sapiens, UniProt P30291)	88.8
MAP2K2 (Homo sapiens, UniProt P36507)	110
